Results pooled from the literature.
Lines come from different studies, so protocols differ. Numbers after ± are the reported error.
PRKD2: Serine/threonine-protein kinase D2 (PRKD2, Homo sapiens, UniProt Q9BZL6)
Sequence of UniProt Q9BZL6 (whole entry, looked up): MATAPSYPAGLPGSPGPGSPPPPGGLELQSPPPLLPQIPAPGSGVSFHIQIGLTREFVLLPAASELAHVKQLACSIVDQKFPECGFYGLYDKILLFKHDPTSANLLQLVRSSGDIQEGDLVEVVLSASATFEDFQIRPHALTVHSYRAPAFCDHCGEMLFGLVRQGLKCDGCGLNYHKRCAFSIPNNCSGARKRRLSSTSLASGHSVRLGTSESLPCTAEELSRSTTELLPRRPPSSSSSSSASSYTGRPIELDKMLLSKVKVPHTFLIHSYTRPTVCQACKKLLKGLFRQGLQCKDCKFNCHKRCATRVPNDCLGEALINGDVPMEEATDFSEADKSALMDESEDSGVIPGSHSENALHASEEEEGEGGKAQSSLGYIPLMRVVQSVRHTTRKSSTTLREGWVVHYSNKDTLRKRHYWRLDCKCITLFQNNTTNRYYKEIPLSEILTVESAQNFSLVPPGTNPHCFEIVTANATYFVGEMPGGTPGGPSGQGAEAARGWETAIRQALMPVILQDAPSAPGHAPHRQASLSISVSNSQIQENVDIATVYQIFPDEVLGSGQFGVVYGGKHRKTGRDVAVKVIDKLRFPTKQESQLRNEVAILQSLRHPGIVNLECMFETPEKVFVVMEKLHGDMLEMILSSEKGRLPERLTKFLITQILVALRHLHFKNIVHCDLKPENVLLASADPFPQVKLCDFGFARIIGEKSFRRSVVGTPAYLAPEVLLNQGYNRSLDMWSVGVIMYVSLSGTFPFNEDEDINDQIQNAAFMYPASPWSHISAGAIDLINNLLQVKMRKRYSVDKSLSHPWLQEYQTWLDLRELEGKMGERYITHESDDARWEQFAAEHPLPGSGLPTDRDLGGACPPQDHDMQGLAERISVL
kasA: 3-oxoacyl-[acyl-carrier-protein] synthase 1 (kasA, Mycobacterium tuberculosis, UniProt P9WQD9)
Sequence of UniProt P9WQD9 (whole entry, looked up): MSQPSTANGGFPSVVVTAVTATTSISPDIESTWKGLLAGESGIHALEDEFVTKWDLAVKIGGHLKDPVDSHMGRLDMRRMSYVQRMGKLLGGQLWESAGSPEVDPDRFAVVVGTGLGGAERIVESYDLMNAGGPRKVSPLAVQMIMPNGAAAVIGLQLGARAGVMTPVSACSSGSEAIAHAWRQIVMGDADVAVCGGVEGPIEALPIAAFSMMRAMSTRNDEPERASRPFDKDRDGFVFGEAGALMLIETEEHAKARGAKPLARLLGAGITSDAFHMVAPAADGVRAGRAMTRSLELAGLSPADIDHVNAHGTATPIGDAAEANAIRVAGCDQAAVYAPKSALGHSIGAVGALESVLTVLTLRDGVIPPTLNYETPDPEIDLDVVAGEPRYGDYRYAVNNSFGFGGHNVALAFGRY
Sequence of UniProt P21709 (whole entry, looked up): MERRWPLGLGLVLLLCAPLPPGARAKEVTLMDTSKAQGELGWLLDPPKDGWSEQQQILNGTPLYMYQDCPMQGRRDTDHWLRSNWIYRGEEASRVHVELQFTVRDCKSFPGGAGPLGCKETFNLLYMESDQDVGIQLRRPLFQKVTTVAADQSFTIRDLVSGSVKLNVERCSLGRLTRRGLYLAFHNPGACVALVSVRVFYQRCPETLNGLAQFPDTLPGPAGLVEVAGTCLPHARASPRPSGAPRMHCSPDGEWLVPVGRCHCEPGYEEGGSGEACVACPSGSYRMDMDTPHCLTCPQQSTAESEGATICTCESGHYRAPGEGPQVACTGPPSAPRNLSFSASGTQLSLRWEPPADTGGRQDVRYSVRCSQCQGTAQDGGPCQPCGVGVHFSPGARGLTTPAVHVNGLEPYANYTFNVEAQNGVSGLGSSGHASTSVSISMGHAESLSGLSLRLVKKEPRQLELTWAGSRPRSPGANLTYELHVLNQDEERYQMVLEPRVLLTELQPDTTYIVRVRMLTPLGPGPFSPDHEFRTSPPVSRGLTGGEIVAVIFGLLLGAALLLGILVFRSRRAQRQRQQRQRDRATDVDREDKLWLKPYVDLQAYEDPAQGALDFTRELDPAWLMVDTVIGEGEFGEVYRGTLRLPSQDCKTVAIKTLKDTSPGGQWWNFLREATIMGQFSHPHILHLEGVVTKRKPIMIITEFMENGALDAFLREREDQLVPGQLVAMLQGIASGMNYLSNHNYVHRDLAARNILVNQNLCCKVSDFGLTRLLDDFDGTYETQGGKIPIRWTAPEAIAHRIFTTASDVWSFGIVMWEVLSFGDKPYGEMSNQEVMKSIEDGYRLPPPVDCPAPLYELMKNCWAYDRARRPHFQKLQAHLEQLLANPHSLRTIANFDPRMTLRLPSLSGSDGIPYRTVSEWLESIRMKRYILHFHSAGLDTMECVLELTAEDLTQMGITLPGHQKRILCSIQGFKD
Sequence of UniProt Q9H093 (whole entry, looked up): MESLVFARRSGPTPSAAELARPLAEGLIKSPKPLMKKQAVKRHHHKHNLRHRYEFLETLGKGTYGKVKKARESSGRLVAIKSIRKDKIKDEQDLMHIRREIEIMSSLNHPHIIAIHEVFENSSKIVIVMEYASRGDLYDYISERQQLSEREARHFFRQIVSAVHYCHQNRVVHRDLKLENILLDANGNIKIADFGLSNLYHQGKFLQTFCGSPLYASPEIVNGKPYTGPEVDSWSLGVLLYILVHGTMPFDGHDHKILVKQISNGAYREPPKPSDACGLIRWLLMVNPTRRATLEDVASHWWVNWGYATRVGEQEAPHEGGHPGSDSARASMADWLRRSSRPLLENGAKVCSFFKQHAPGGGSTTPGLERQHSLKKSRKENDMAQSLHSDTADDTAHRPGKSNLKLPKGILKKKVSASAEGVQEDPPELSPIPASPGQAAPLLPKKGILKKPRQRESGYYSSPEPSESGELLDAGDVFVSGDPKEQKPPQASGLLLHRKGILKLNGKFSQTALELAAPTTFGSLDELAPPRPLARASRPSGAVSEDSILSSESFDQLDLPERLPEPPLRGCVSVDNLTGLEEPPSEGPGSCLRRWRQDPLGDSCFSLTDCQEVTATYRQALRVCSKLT
Sequence of UniProt P49685 (whole entry, looked up): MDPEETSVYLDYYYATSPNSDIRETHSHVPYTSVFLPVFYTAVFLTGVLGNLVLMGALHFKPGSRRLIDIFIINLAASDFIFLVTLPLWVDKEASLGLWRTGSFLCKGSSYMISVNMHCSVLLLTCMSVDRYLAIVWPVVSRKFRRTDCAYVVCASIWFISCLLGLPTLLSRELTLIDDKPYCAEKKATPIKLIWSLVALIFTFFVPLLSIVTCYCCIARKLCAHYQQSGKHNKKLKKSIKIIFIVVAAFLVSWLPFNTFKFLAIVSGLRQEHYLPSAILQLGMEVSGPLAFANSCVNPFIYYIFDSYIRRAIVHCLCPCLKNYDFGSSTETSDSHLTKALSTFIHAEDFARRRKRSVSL
Sequence of UniProt P46094 (whole entry, looked up): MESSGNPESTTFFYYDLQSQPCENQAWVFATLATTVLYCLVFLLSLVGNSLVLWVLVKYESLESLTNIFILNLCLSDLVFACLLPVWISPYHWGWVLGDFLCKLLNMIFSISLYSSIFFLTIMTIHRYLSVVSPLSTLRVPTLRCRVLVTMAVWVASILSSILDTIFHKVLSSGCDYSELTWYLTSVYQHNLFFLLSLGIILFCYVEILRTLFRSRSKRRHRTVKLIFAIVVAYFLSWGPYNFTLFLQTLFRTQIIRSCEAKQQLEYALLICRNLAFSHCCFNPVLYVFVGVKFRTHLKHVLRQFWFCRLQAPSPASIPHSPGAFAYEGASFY
Sequence of UniProt O75608 (whole entry, looked up): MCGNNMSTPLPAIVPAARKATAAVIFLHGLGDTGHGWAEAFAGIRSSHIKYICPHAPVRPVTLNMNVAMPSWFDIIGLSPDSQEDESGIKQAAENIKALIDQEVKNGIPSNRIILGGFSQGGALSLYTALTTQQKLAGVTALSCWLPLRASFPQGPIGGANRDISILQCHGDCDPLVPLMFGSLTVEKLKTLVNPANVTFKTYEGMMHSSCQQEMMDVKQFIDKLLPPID

O=C(Nc1cnccc1Cl)N1CCN(Cc2ccc3c(c2)OC(F)(F)O3)CC1
inhibition (PRKD2; kinase activity, inhibitor; 50 µM, human, together with: MAPKAPK substrate): -3%

CCc1nc2ccc(Cl)cn2c1C(=O)N1CC(CC(N)=O)C1
ΔTm (kasA; thermal stabilization, nanoDSF; 100 µM): -0.21 °C

Oc1ccc2c3c1O[C@H]1[C@@H](O)CC[C@@]4(O)[C@@H](C2)N(CC2CCC2)CC[C@]314
log2 fold change (G-protein coupled receptor 15 (Homo sapiens, UniProt P49685); β-arrestin recruitment, TANGO luminescence, refers to: GPR15; concentration not given; baseline: basal luminescence): -0.061

O=C(c1ccc(Cl)cc1)N1CCN2C(=O)N(OC(=O)N3CCOc4ccccc43)C(=O)C2C1 (stereo not shown)
median ratio (Acyl-protein thioesterase 1 (Homo sapiens, UniProt O75608); enzyme activity, inhibitor, MS-based ABPP; SW-620 in situ; 10 µM, 2 h, 37 °C; baseline: compound over DMSO, lower = stronger inhibition): 1.12

COC(=O)Nc1nc2cc(C(=O)c3ccc(F)cc3)ccc2[nH]1
ΔTm (kasA; thermal stabilization, nanoDSF; 100 µM): -0.03 °C

O=C(Nc1cccnn1)N1CCC(=Cc2cccc(Oc3ccc(C(F)(F)F)cn3)c2)CC1
inhibition (PRKD2; kinase activity, inhibitor; 50 µM, human, together with: MAPKAPK substrate): 1%

CC[C@H](C)[C@H](NC(=O)CNC(=O)[C@@H](N)CCCCN)C(=O)N[C@@H](CC(C)C)C(=O)N[C@@H](CCCCN)C(=O)N[C@@H](CCCNC(=N)N)C(=O)N[C@@H](CCC(=O)O)C(=O)N[C@@H](CCCCN)C(=O)N[C@@H](CCCNC(=N)N)C(=O)N[C@@H](CC(C)C)C(=O)N[C@@H](CCCNC(=N)N)C(=O)N[C@@H](CCCNC(=N)N)C(=O)N[C@@H](CCCCN)C(=O)N[C@@H](CC(N)=O)C(=O)N[C@H](C(=O)N[C@@H](Cc1c[nH]cn1)C(=O)N[C@@H](Cc1c[nH]c2ccccc12)C(=O)N1CCC[C@H]1C(=O)N[C@@H](CCC(=O)O)C(=O)N[C@@H](CCC(=O)O)C(=O)NCC(=O)N[C@@H](CCCCN)C(=O)N[C@@H](CC(C)C)C(=O)N[C@@H](CCCNC(=N)N)C(=O)N[C@@H](CCC(=O)O)C(=O)N[C@@H](Cc1ccccc1)C(=O)N[C@@H](Cc1ccccc1)C(=O)N[C@@H](Cc1ccccc1)C(=O)N[C@@H](Cc1ccccc1)C(=O)N[C@@H](CCC(=O)O)C(=O)N[C@@H](CC(C)C)C(=O)N[C@@H](CC(=O)O)C(=O)N[C@@H](CCC(=O)O)C(=O)N[C@@H](C)C(=O)N[C@@H](CCC(=O)O)C(=O)N[C@@H](CCCNC(=N)N)C(=O)N[C@H](C(=O)N[C@@H](CC(N)=O)C(=O)N[C@H](C(=O)O)C(C)C)C(C)C)C(C)C
log2 fold change (HeLa and HEK-293T cells; phosphatase bead binding, competitive inhibitor, PIB pulldown iBAQ LC-MS/MS, refers to: PPP6R2; concentration not given; baseline: untreated control): 0.0645

C[C@]12CC[C@@H](O)C[C@@H]1CC[C@@H]1[C@@H]2CC[C@]2(C)[C@@H]([N+](=O)[O-])CC[C@@H]12
Emax ([3H]flunitrazepam binding, positive modulator; rat cerebral cortex homogenate; baseline: allopregnanolone Emax): 98 ± 6%

COc1ccc(N2C(=O)N(c3c(C)cccc3Cl)Cc3cnc(Nc4ccc(C5CCN(C)CC5)cc4OC)nc32)nc1
inhibition (NUAK2 (Homo sapiens, UniProt Q9H093); kinase activity; 0.5 µM): 16%

C[C@H]1CN(c2n[nH]c3nc(N[C@H]4CC[C@H](NS(=O)(=O)CCC(F)(F)F)CC4)ncc23)CCO1
Hill coefficient (Tight junction protein 1 (TJP1, Homo sapiens, UniProt Q07157); binding, Kinobeads competition, refers to: TJP1): 1

[2H]c1c([2H])c([C@]2([2H])CCCN2C(=O)C(C)(C)Oc2ccc3cn[nH]c3c2)c([2H])c([2H])c1C([2H])([2H])[2H]
remaining binding (EPHA1 (Homo sapiens, UniProt P21709); KINOMEscan; 1 µM; baseline: DMSO control): 76%

CCn1ncc2ccc(NS(=O)(=O)c3cccc(Cl)c3O)cc21
ΔTm (kasA; thermal stabilization, nanoDSF; 100 µM): 0.07 °C

CN1CCN(c2cc(-c3ccncc3)c(-c3ccc4ccccc4c3)nn2)CC1
inhibition (XCR1 (Homo sapiens, UniProt P46094); antagonist, FLIPR; 10 µM): 35.3%

For quick reference, copied from above:
Oc1ccc2c3c1O[C@H]1[C@@H](O)CC[C@@]4(O)[C@@H](C2)N(CC2CCC2)CC[C@]314
log2 fold change (G-protein coupled receptor 15 (Homo sapiens, UniProt P49685); β-arrestin recruitment, TANGO luminescence, refers to: GPR15; concentration not given; baseline: basal luminescence): -0.061

O=C(Nc1cnccc1Cl)N1CCN(Cc2ccc3c(c2)OC(F)(F)O3)CC1
inhibition (PRKD2; kinase activity, inhibitor; 50 µM, human, together with: MAPKAPK substrate): -3%
